Assay results from different studies.
Lines come from different studies, so protocols differ. ± gives the spread as reported.
UniProt P50613, sequence (whole entry, looked up): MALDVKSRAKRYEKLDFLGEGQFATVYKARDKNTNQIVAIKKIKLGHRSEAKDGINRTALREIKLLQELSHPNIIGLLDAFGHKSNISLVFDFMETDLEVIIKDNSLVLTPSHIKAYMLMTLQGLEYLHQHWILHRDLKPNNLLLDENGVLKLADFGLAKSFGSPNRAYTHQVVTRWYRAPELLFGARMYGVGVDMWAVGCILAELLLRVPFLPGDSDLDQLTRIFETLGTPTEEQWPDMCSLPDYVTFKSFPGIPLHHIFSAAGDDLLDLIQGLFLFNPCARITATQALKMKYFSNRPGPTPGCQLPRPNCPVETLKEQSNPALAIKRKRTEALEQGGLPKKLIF

CC1(C)C(C=C(Cl)Cl)C1C(=O)OC(C#N)c1ccc(F)c(Oc2ccccc2)c1 (stereo not drawn)
enzyme contribution to clearance (refers to: CYP3A5; human, age 5 years, recombinant human CYP3A5; 0.1 µM): 0.2%

COS(C)(=O)=O
micronucleated PCE per 1000 PCE (male Hsd:ICR (CD-1) mouse, bone marrow; oral, 40 mg/kg/day, positive control): 6.7

[O-][S+]1CCc2nc(N3CCC(c4ncc(Cl)cn4)CC3)nc(NC3(CO)CCC3)c21 (stereo not drawn)
haemoglobin (refers to: mean; idiopathic pulmonary fibrosis patients, blood; 18 mg twice daily, at last treatment): 132 g/L

CCOC(=O)C1=C[C@@H](OC(CC)CC)[C@H](NC(C)=O)[C@@H](N)C1
renal clearance (Sprague-Dawley rats, male, plasma and urine; oral, 30 mg/kg, alone): 10.3 mL/min/kg

C[C@@H](NC(=O)N1C(=O)[C@H](Cc2ccnc(N)c2)[C@H]1C(=O)O)C1CCCCC1
incidence of moderate AEs (healthy adult Chinese volunteers; continuous intravenous infusion, 1.5 mg/kg/h, 5-day infusion, CTCAE 5.0 grading): 12.5%

C[C@@H](O)[C@@H]1NC(=O)CNC(=O)[C@H](Cc2c[nH]cn2)NC(=O)[C@H](Cc2c[nH]c3ccccc23)NC(=O)[C@H](CC(N)=O)NC(=O)CNC(=O)C[C@@H](C(=O)N[C@@H](Cc2c[nH]c3ccccc23)C(=O)N[C@@H](Cc2ccccc2)C(=O)N[C@@H](Cc2ccccc2)C(=O)N[C@@H](CC(N)=O)C(=O)N[C@@H](Cc2ccc(O)cc2)C(=O)N[C@@H](Cc2ccc(O)cc2)C(=O)N[C@@H](Cc2c[nH]c3ccccc23)C(=O)O)NC(=O)[C@@H]2CCCN2C(=O)[C@H](CO)NC1=O
recovery (rapid equilibrium dialysis; human plasma; 20 µM, time not given): 86.2%

C[C@@H]1NC(=O)[C@H](CCCCNC(=O)CO/N=C/C(=O)NCCCC[C@@H]2NC(=O)[C@@H](Cc3ccccc3)NC(=O)[C@H](CC(=O)O)NC(=O)CNC(=O)[C@H](CCCNC(=N)N)NC2=O)NC(=O)CNC(=O)[C@@H]2CCCN2C(=O)[C@H](CCCCNC(=O)CO/N=C/C(=O)NCCCC[C@@H]2NC(=O)[C@@H](Cc3ccccc3)NC(=O)[C@H](CC(=O)O)NC(=O)CNC(=O)[C@H](CCCNC(=N)N)NC2=O)NC(=O)[C@H](CCCCNC(=O)CN2CCCNCCNCCCNCC2)NC(=O)[C@H](CCCCNC(=O)CO/N=C/C(=O)NCCCC[C@@H]2NC(=O)[C@@H](Cc3ccccc3)NC(=O)[C@H](CC(=O)O)NC(=O)CNC(=O)[C@H](CCCNC(=N)N)NC2=O)NC(=O)CNC(=O)[C@@H]2CCCN2C(=O)[C@H](CCCCNC(=O)CO/N=C/C(=O)NCCCC[C@@H]2NC(=O)[C@@H](Cc3ccccc3)NC(=O)[C@H](CC(=O)O)NC(=O)CNC(=O)[C@H](CCCNC(=N)N)NC2=O)NC1=O [copper-64 labelled]
tissue uptake (normal mice, kidney; intravenous, 0.74 MBq, 3 h post-injection): 18.9 ± 1.99 %ID/g

Cc1cc(C)nc(Nc2ncc(C(=O)NCCc3c(C)[nH]c4ccccc34)cn2)c1
oral bioavailability (Sprague-Dawley rat): 12%

O=C(O)C(O)(c1cccs1)c1cccs1
metabolite over parent AUC(0-24) ratio (human, plasma; oral, 10 mg once daily, 5 days, median; reference: metabolite over parent): 0.18

CN1CC[C@@H](c2c(O)cc(O)c3c(=O)cc(-c4ccc(C(F)(F)F)cc4Cl)oc23)[C@@H]1CO
patients with adverse event (refers to: Diarrhea; relapsed or refractory haematological malignancies; oral, dose not given, all arms): 30%

COc1ccc(-c2c(-c3ccc(C#N)c(F)c3)nc(N3CCC(N)CC3)n(C)c2=O)cc1F
treatment-related adverse event incidence (refers to: Fatigue/asthenia; human patients; oral, dose not given, grade 3 to 4, dose escalation, NG): 2%

COc1cc2c(Oc3ccc4[nH]c(C)cc4c3F)ccnc2cc1OCC1(N)CC1
grade 1 or 2 Diarrhoea (paediatric recurrent refractory sarcoma; concentration not given, whole group): 41.2%

Cn1c(-c2ccc(C(N)=O)cc2F)nnc1C(C)(C)Oc1c(F)cc(Cl)cc1F
subjects with any TEAE (human; oral, dose not given, single ascending dose all doses): 30.6%

CCCCCCCCCCCCCCCC(=O)N[C@@H](CCC(=O)NCCCC[C@H](NC(=O)[C@H](CC(=O)O)NC(=O)[C@H](CO)NC(=O)[C@@H](NC(=O)[C@H](Cc1ccccc1)NC(=O)[C@@H](NC(=O)CNC(=O)[C@H](CCC(N)=O)NC(=O)[C@H](CO)NC(=O)[C@@H](N)Cc1c[nH]cn1)[C@@H](C)O)[C@@H](C)O)C(=O)N[C@@H](CO)C(=O)N[C@@H](CCC(=O)O)C(=O)N[C@@H](Cc1ccc(O)cc1)C(=O)N[C@@H](CC(C)C)C(=O)N[C@@H](CC(=O)O)C(=O)N[C@@H](CO)C(=O)N[C@@H](CCC(=O)O)C(=O)N[C@@H](CCCNC(=N)N)C(=O)N[C@@H](C)C(=O)N[C@@H](CCCNC(=N)N)C(=O)N[C@@H](CC(=O)O)C(=O)N[C@@H](Cc1ccccc1)C(=O)N[C@H](C(=O)N[C@@H](C)C(=O)N[C@@H](Cc1c[nH]c2ccccc12)C(=O)N[C@@H](CC(C)C)C(=O)N[C@@H](CCC(=O)O)C(=O)N[C@@H](C)C(=O)NCC(=O)NCC(=O)O)C(C)C)C(=O)O
injection site erythema (human, CrCl ≥ 90 mL/min; sc, 100 µg single dose): 12.5%

COc1ccc(C[C@@H]2NC(=O)[C@H]([C@@H](C)O)NC(=O)[C@@H]3[C@@H]4CCN3C(=O)[C@@H]3Cc5cn(c6ccc(F)cc56)CCCCCCN(Cc5ccc(cc5)CCNC(=O)[C@]5(C)CCCN5C2=O)C(=O)CCC(=O)N[C@@H](C)C(=O)N[C@H](CNC(=O)CCCCC[N+](C)(C)C)C(=O)N[C@@H](Cc2cccc(c2)CNC(=O)CO4)C(=O)N3)cc1
t1/2 (human, plasma; oral, 40 mg, high-fat breakfast 30 min before, with: sodium caprate 720 mg): 58.9 h

N=c1c2c(-c3ccccc3)c(-c3ccccc3)n(Cc3ccccc3)c2ncn1[C@H]1CC[C@H](O)CC1
AUC(0-t)/AUC(0-inf) (Beagle dogs, male, plasma; dose not given): < 60%

CCCCN1CCC(COC(=O)c2ccc(N)c(O[11CH3])c2)CC1
parent radioligand fraction (rhesus monkey, arterial plasma; iv, 3.02 min): 48.3%

CCc1ccc(CC/C=C/c2ccc3c(c2)C(=O)CC3)cc1
Fibrinogen (Sprague-Dawley rat, male; oral, 120 mg/kg/day, 14 days): 3.4 g/L

COc1ncccc1-c1cnn2ccc(N3CCN(C(=O)OC(C)C)CC3)nc12
free drug concentration (mouse, SNL model, plasma; oral, 60 mg/kg, 30 min): 340 nM

Cn1nc(NS(C)(=O)=O)c2c(Cl)ccc(-n3c([C@H](Cc4cc(F)cc(F)c4)NC(=O)Cn4nc(C(F)F)c5c4C(F)(F)[C@@H]4C[C@H]54)nc4nc(OCCC(F)(F)F)ccc4c3=O)c21
participants with grade 2 LDL-C increase (human; dose not given): 10%

O=C(O)CNCP(=O)(O)O
final permeate concentration (ultrafiltration; cow milk whey; 2000 nM nominal in whole milk): 1930 nM

O=C(O)CCCOc1ccc(F)cc1-c1cc(-c2ccccc2C(F)(F)F)n(-c2ccccc2)n1
blood chemistry (refers to: UN; Crl:CD(SD) rats, female, blood; iv, 25 µg/kg, 14 days): 14.1 ± 1.3 mg/dL

CC(C)C(=O)OC[C@H]1O[C@@H](n2ccc(NO)nc2=O)[C@H](O)[C@@H]1O
bench-top stability (rat fetus dialysate; 250 ng/mL, 6 h, room temperature, high concentration, with: NHC 1000 ng/mL): 101 ± 1.22%

Cn1ncc(-c2nc(N[C@H]3CC[C@H](N)CC3)ncc2Cl)c1CC1CC1
alanine aminotransferase increase incidence (phase I dose escalation; human patients; dose not given, treatment-related grade 3 or higher): 3.2%

CC(=O)c1c(C)c2cnc(Nc3ccc(C4CCN(CCS(C)(=O)=O)CC4)cn3)nc2n(C2CCCC2)c1=O
Cmax (beagle dog, female, plasma; oral, 6 mg/kg, day 28, repeated dosing 4 weeks): 149 ng/mL

CCN1[C@@H](C(=O)NC23CCC(C(=O)O)(CC2)CC3)[C@H](c2cccc(Cl)c2F)[C@]2(C(=O)Nc3cc(Cl)ccc32)C12CCCCC2
any-grade leukopenia incidence (patients with advanced solid tumours; oral, dose not given, all doses): 57.1%

C[C@H]1CN(c2n[nH]c3nc(N[C@H]4CC[C@H](NS(=O)(=O)CCC(F)(F)F)CC4)ncc23)CCO1
remaining binding (CDK7 (Homo sapiens, UniProt P50613); Kinobeads competition; HEK293, K562, placenta lysate; 0.8 µM, unit not given; reference: vehicle): 0.83

CC(C)[C@@H]1NC(=O)CNC(=O)[C@H](CC(N)=O)NC(=O)[C@H](CCCNC(=N)N)NC(=O)[C@H](Cc2ccc(O)cc2)NC(=O)[C@H](C(C)C)NC(=O)[C@@H](NC(=O)[C@@H](NC(=O)[C@H](CC(N)=O)NC(=O)[C@H](Cc2c[nH]c3ccccc23)NC(=O)[C@H](C)NC(=O)[C@H](Cc2ccccc2)NC(=O)CN)C(C)C)CSSC[C@@H](C(=O)N[C@@H](Cc2cnc[nH]2)C(=O)N[C@@H](CCCNC(=N)N)C(=O)N[C@@H](CCCNC(=N)N)C(=O)N[C@@H](C)C(=O)N[C@@H](CC(N)=O)C(N)=O)NC(=O)[C@H](C(C)C)NC(=O)[C@H](CCCNC(=N)N)NC1=O
haemoglobin (ICR mouse, blood; intramammary, 10 mg/kg, day 5, 3 d dosing): 120 ± 1.88 g/L

O=C1Nc2cc3[nH]nc(-c4ccncc4)c3cc2CN1Cc1ccccc1
patients with blurred vision (CTCAE v4.03; advanced solid tumour patients; intravenous, 4.8 mg/kg): 0%

O=S(=O)(Nc1ccccc1)c1ccc(NC(=S)Nc2ccccc2)cc1
chloride level (male mouse, blood; oral, 5 mg/kg daily, 14 days): 106 mmol/L

CO[C@H]1C[C@@H]2CC[C@@H](C)[C@@](O)(O2)C(=O)C(=O)N2CCCC[C@H]2C(=O)O[C@H]([C@H](C)C[C@@H]2CC[C@@H](OC(=O)NCCOCCOCCOCCOCCOCCOCCOCCOCCC(=O)N3CCc4cc(Cn5nc(-c6ccc7oc(N)nc7c6)c6c(N)ncnc65)ccc4C3)[C@H](OC)C2)C[C@@H](O)[C@H](C)/C=C(\C)[C@@H](O)[C@@H](OC)C(=O)[C@H](C)C[C@H](C)/C=C/C=C/C=C/1C
TRAE incidence (phase 1 dose escalation, refers to: nausea; advanced solid tumour patients; intravenous, 6 mg weekly, any grade): 50%

C[C@]1(CO)Cc2ncn(-c3ccc(C#N)c(Cl)c3)c2C(=O)O1
Tmax (healthy Japanese adults, plasma; 20 mg single dose): 0.8 h

COC[C@@H](CC(C)C)NC(=O)c1ccc(C)c(C)c1
micronucleated PCE per 1000 PCE (Hsd:ICR (CD-1) mouse, male, bone marrow; oral, 1352 mg/kg, 48 h): 0.3

Some of these lines once more:
O=S(=O)(Nc1ccccc1)c1ccc(NC(=S)Nc2ccccc2)cc1
chloride level (male mouse, blood; oral, 5 mg/kg daily, 14 days): 106 mmol/L

CO[C@H]1C[C@@H]2CC[C@@H](C)[C@@](O)(O2)C(=O)C(=O)N2CCCC[C@H]2C(=O)O[C@H]([C@H](C)C[C@@H]2CC[C@@H](OC(=O)NCCOCCOCCOCCOCCOCCOCCOCCOCCC(=O)N3CCc4cc(Cn5nc(-c6ccc7oc(N)nc7c6)c6c(N)ncnc65)ccc4C3)[C@H](OC)C2)C[C@@H](O)[C@H](C)/C=C(\C)[C@@H](O)[C@@H](OC)C(=O)[C@H](C)C[C@H](C)/C=C/C=C/C=C/1C
TRAE incidence (phase 1 dose escalation, refers to: nausea; advanced solid tumour patients; intravenous, 6 mg weekly, any grade): 50%

C[C@]1(CO)Cc2ncn(-c3ccc(C#N)c(Cl)c3)c2C(=O)O1
Tmax (healthy Japanese adults, plasma; 20 mg single dose): 0.8 h
